Results gathered from unrelated publications.
± marks the error that the study gave.

| SMILES | target | test | test system | conditions | scale | measurement | value |
| --- | --- | --- | --- | --- | --- | --- | --- |
| COc1ccc(CNc2nc(-c3ccc(OC)c(OC)c3)cc(C(F)(F)F)n2)cc1 | Secretin receptor (SCTR, Homo sapiens, UniProt P47872) | increase of tracer binding, TR-FRET | HEK293 membranes | together with: Fluo-Sec 6 nM | – | Emax | 132 ± 12% |
| O=C(c1cc2c(s1)CCCCC2)N1CCC(n2c(=O)[nH]c3ccccc32)CC1 | Short transient receptor potential channel 6 (Trpc6, Mus musculus, UniProt Q61143, E672D) | ion current, agonist, whole-cell patch clamp | – | 100 µM, E672D mutant | – | maximal current density | 11.7 ± 1.02 pA/pF |
| N#Cc1cc(C(=O)OCC[18F])c(C(F)(F)F)nc1N1CCN(C(=O)Cc2ccccc2)CC1 | P2Y purinoceptor 12 (P2ry12, Mus musculus, UniProt Q9CPV9) | PET | mouse, IL-4-induced lesion, brain lesion | together with: clopidogrel 1.0 mg/kg | baseline: unblocked | decrease of PET signal | ~1.45 fold |
| CC(C)C[C@@H](CN[C@H](Cc1ccccc1)C(N)=O)NC(=O)[C@H](Cc1c[nH]cn1)NC(=O)CNC(=O)[C@@H](NC(=O)[C@H](C)NC(=O)[C@H](Cc1c[nH]c2ccccc12)NC(=O)[C@H](CCC(N)=O)NC(=O)[C@H](N)Cc1ccccc1)C(C)C | Neuromedin-B receptor (NMBR, Homo sapiens, UniProt P28336) | agonist | NCI-H1299 | – | baseline: NMB 1 µM | IP release | 32 % max |
| O=C(O)CCn1c2ccc(Br)cc2c2cc(Br)ccc21 | Kcnk2 (Mus musculus, UniProt P97438) | ion current, two-electrode voltage clamp | Xenopus oocytes | – | – | Hill coefficient | 2.2 ± 0.5 |
| CC(C)C[C@@H]1NC(=O)[C@H]([C@@H](C)O)NC(=O)[C@H](Cc2ccccc2)NC(=O)CNC(=O)[C@H](Cc2c[nH]c3ccccc23)NC(=O)[C@H](Cc2c[nH]cn2)NC(=O)[C@H](C)NC(=O)[C@@H](N)CCCCNC(=O)C[C@@H](C(N)=O)NC1=O | 72 kDa type IV collagenase (MMP2, Homo sapiens, UniProt P08253) | – | – | concentration not given | baseline: compound over C1 | gelatinase inhibition increase | 4 fold |
| Cn1cncn1.[Ru+2].c1cc(-c2ccc3ccccc3n2)nc(-c2ccc3ccccc3n2)c1.c1ccc2cc3nc4c5cccnc5c5ncccc5c4nc3cc2c1 | Procathepsin L (CTSL, Homo sapiens, UniProt P07711) | irreversible inhibitor | – | pH 5.5, green light, 10 min, together with: Z-Phe-Arg-AMC | – | kinact/KI | < 10 M⁻¹ s⁻¹ |
| CCC1CC2C(C)=CC3C(=O)CCCC3C=CC(C)=CC2C(=O)O1 (centres unmarked) | Microtubule-associated protein tau, R3 peptide oligomers (MAPT, Homo sapiens, UniProt P10636) | thioflavin T fluorescence | – | 500 µM | – | R3 fibril reduction | 22.1% |
| NC1CCC(Nc2nccc(-c3cccnc3Oc3ccc(NS(=O)(=O)C4CCC4)c4ccccc34)n2)CC1 (centres unmarked) | Serine/threonine-protein kinase/endoribonuclease IRE1, RNase domain (ERN1, Homo sapiens, UniProt O75460) | RNase activity | – | – | baseline: IRE1β IC50 over IRE1α IC50 | selectivity ratio | > 2000 fold |
| Nc1nc2c(ncn2[C@H]2C[C@H](O)[C@@H](COP(=O)(O)OP(=O)(O)[C@H](F)P(=O)(O)O)O2)c(=O)[nH]1 | DNA polymerase beta (POLB, Homo sapiens, UniProt P06746) | substrate, quench-flow kinetics | – | pH 8.0, 37 °C, misincorporation opposite T in gapped DNA | – | kpol | 2.3 ± 0.4 s⁻¹ |
| Oc1c(C(Nc2nc3ccccc3s2)c2cccc(OCc3ccccc3)c2)ccc2cccnc12 (centres unmarked) | Genome polyprotein, NS2B-NS3 protease (Dengue virus type 2, UniProt P14340) | enzyme activity, inhibitor | – | no CHAPS, together with: Bz-Nle-Lys-Arg-Arg-AMC substrate | – | Hill slope | 1.14 ± 0.07 |
| CC(=O)[C@@]1(O)CC[C@H]2[C@@H]3CCC4=CC(=O)CC[C@]4(C)[C@H]3CC[C@@]21C | ADGRG6, beta subunit (Homo sapiens, UniProt Q86SQ4) | cAMP inhibition, GloSensor cAMP | – | – | baseline: full-length GPR126 over ADGRG6 construct | EC50 ratio | ~10 fold |
| CC(C)Cc1ccc(S(=O)(=O)N2CCN(Cc3noc(CCC(=O)NC4CCCCC4)n3)CC2)cc1 | Potassium voltage-gated channel subfamily KQT member 2 (KCNQ2, Homo sapiens, UniProt O43526) | potassium current, activator, whole-cell patch clamp | CHO, stable | 20 µM | baseline: current before compound | current fold increase | 1.08 ± 0.08 |
| Cc1cn(C2CC(O)C(COP(=O)(O)OP(=O)(O)C(Br)P(=O)(O)O)O2)c(=O)[nH]c1=O (mixture of isomers) | DNA polymerase beta (POLB, Homo sapiens, UniProt P06746, I260M) | substrate, single turnover kinetics | – | – | – | kpol/Kd | 210000 ± 20000 M⁻¹ s⁻¹ |

Some of these lines once more:
| SMILES | target | test | test system | conditions | scale | measurement | value |
| --- | --- | --- | --- | --- | --- | --- | --- |
| CC(C)Cc1ccc(S(=O)(=O)N2CCN(Cc3noc(CCC(=O)NC4CCCCC4)n3)CC2)cc1 | Potassium voltage-gated channel subfamily KQT member 2 (KCNQ2, Homo sapiens, UniProt O43526) | potassium current, activator, whole-cell patch clamp | CHO, stable | 20 µM | baseline: current before compound | current fold increase | 1.08 ± 0.08 |
| Cc1cn(C2CC(O)C(COP(=O)(O)OP(=O)(O)C(Br)P(=O)(O)O)O2)c(=O)[nH]c1=O (mixture of isomers) | DNA polymerase beta (POLB, Homo sapiens, UniProt P06746, I260M) | substrate, single turnover kinetics | – | – | – | kpol/Kd | 210000 ± 20000 M⁻¹ s⁻¹ |
